# Published values collected from several papers.
# Numbered parts are unrelated; each lists some results of a single study.

# Set 1
# Target: Prothrombin, mature alpha-thrombin (F2, Homo sapiens, UniProt P00734)
# Technique: aptamer microarray, sandwich
# Form: DNA with 2'F-ANA
# Matrix: in vitro
# Concentration: 200 nM
# Setting: whole 15-mer aptamer, many near background
# Added: Cy3 exosite-II aptamer, 400 nM
# Reading: higher = stronger binding
# Sequence: GGTTGGTGTGGTTGG
Modification,mean fluorescence intensity
2'F-ANA at 1 5 7 8 9 10 13 15,59.5 a.u.
2'F-ANA at 1 3 4 8 11 12 14,97.2 a.u.
2'F-ANA at 3 6 8 9,939 a.u.
2'F-ANA at 4 7 11 12 13 14,125 a.u.
2'F-ANA at 2 7 8 10 12 13 15,203 a.u.
2'F-ANA at 3 5 7 10 12 14 15,67 a.u.
2'F-ANA at 1 2 3 4 7 8 10 11 13 14,50.3 a.u.
2'F-ANA at 2 4 8 10 13 15,154 a.u.
2'F-ANA at 2 3 5 6 8 9 11 13 14 15,109 a.u.
2'F-ANA at 2 3 4 5 12 14,57.3 a.u.
2'F-ANA at 2 4 5 6 7 8 9 10 12,53.6 a.u.
2'F-ANA at 10 12 13 15,218 a.u.
2'F-ANA at 1 2 3 4 5 7 10 11 12 13 14 15,48.7 a.u.
2'F-ANA at 2 3 5 6 7 10 11 13 15,54.2 a.u.
2'F-ANA at 1 5 6 7 9 12,118 a.u.
2'F-ANA at 3 4 5 7 8 10 11 13 14 15,54.7 a.u.
2'F-ANA at 2 4 10 11 12,127 a.u.
2'F-ANA at 1 2 4 7 8 9 11,118 a.u.
2'F-ANA at 1 2 3 5 6 8 9 12 13 14,47.5 a.u.
2'F-ANA at 5 6 9 10,46.7 a.u.
2'F-ANA at 4 6 10 12 15,105 a.u.
2'F-ANA at 1 2 4 5 6 8 9 12 13 14 15,54 a.u.
2'F-ANA at 1 2 3 4 7 9 11 12 13 14 15,60.1 a.u.
2'F-ANA at 2 3 4 5 7 8 11 12 13,115 a.u.
2'F-ANA at 2 3 5 6 8 12 15,240 a.u.

# Set 2
# Target: RING finger protein unkempt homolog, zinc fingers 1-6, GST-SBP tag (UNK, Homo sapiens, UniProt Q9C0B0, residues 30-357)
# Technique: RNA Bind-n-Seq
# Form: RNA
# Matrix: in vitro
# Concentration: not given
# Setting: RNA with constant flanks, human-mouse chimeric sites, ends assumed
# Baseline: input RNA pool
# Reading: higher = stronger binding
# All sequences stand within: GGGAGUUCUACAGUCCGACGAUC … CAACAGAGGAUUGAGCAUCA
# Residues (chain): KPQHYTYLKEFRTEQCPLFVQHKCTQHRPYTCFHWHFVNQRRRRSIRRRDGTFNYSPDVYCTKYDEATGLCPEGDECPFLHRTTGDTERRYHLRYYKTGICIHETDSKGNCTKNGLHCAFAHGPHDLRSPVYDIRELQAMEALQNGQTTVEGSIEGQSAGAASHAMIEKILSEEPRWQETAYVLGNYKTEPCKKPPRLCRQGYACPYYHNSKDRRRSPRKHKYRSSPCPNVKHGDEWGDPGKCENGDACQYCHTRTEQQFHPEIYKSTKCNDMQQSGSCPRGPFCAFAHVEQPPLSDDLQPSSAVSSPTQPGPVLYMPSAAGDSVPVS
Sequence,bound/input enrichment
CUGUGACUGAUGGCAGCUACCUGAGUGGCAGCUGAAGUUGACUCCCUCUCCUUGCCUGAACCCCCCCCCACUGCCCCCCCAUCCCCCAGUGUCGGCUGAGAUGUUGCCAGCAGACAGUUC,0.661 ratio
GUUGCCAGCUUCCGGUUCCGUUGGGCUAGCAAGCUCCCUGAGCUACGUGUCUCUACGCUCUCAAUCCGCCAUCCAACAAACAUGGAUGAUCAGGUAAAGUUUGUGGAGCCCAGCCGGCAG,0.0835 ratio
GCGAACAGGACUACAGAAAUGCUGGUAGUGCUCCGGCCUUGCUGAUGACUUCUGAUGUCCCAGCAAAUGUUGGCAUUGUUGACUGCUGAGAAGAUACUUCUGAGGACCCACGUCUAAGGU,0.0584 ratio
AAAGAGAAACUAAAGCAACUAAUAGAGAAGAGGAUUGGCAAAGAGAAUUUCAUAGAGGAAACUAGGAUUAUUAGCAAACAUGAGUUAGUAUUCCAGACGUCUCAGAAACCCCAGCCAAAC,1.64 ratio
GUGCCCUUCUCGCUGCUGCGGAGCCCGAGCUGGGAACCAUUCCGGGACUGGUACCCUGCACACAGCCGCCUCUUCGACCAGGCCUUCGGGCUGCCCCGGUUGCCCGAUGAGUGGUCGCAG,0.0623 ratio
AGUGUGCAGGAAUUCAUGACCUUUACAAGUCAACUGAUUGUGGAACGCUCGGGGAAAGGCACUAGAGCUUCUGUCAAAGAACAAGAGUAUCUUUGCCAUGUCUACGUCCGGAAUGAUAGU,0.136 ratio
CUGUGUGGCUUACUAAAAUGGCUUGUAAAGAAGUUUUUCCAAGCUGUAACCCAUGCUGUUAUUAUAGUUGCUGCAAAAUGUUCUUCCUGAUAUUGAUUUUAUUUGUUAACUGAAGGUCUC,0.521 ratio
GAGCCCAGUCGGCAGUUUGUAAAGGACUCAAUUCGGCUGGUUAAAAGAUGCACCAAACCCGACAGAAAAGAAUUCCAGAAGAUUGCCAUGGCUACAGCAAUAGGAUUUGCUAUCAUGGGA,0.157 ratio
AUUGUUGAAGCGAAUCCACUCCUAGAAGCAUUUGGAAAUGCAAAGACUGUUCGCAACAAUAAUAGCAGUCGAUUUGGAAAAUUUGUAGAAAUUCAUUUUAAUGAAAAGAGUUCGGUUGUU,0.52 ratio
UCAUUUUUCUCUUUUCUGAUCGUCAGGAAAAGCCUAACUAAAGAUUAGGUUGUAAGAAAAACAGAAGCCAUGUUUCGAAGACCUGUGUUACAGGUAUUUCGUCAGUUUGUAAGACAUGAG,0.18 ratio
UAAAUUAGGGCUGCCGUCCGUUCUCACGCCCUGAGCUGCGGAAAGCCAGAAGAUUUUAUCUAGCUUAUACAAGGCUGCUGGUGUUCCCUCUUUUUUUCCACGAGGGUGUUUUUGGCUGCA,0.538 ratio

# Set 3
# Target: RNA binding protein fox-1 homolog 2, RRM domain, GST-SBP tag (RBFOX2, Homo sapiens, UniProt O43251-10, residues 100-194)
# Technique: RNA Bind-n-Seq
# Form: RNA
# Matrix: in vitro
# Concentration: 365 nM
# Setting: natural RNA segment, single round, ends assumed
# Baseline: no-protein control
# Reading: higher = stronger binding
# All sequences stand within: GGGAGUUCUACAGUCCGACGAUC … UGGAAUUCUCGGGUGCCAA
# Residues (chain): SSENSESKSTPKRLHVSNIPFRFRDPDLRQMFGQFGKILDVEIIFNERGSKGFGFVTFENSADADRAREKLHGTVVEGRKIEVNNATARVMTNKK
Sequence,RBNS enrichment (R)
GUGCUAUUGGGUUUUAUUUCCAGAAAAUAUAGUUCUCCUUUUUUCUGCAUGAAGGAUACAUCGUGGUGCCACAUGCUUUAAGCAAUUUAAACAAGAGAGAUAAGAGGAAA,1.28
AAGACCUGACGUACUCUGGUUAGGUUAGGACUUGCCCUCGUGGUGGAAACUUUUCUUAAAAAGUUAUAACCAACUUUUCUAUUAAAAGUGGGAAUUAGGAGAGAAGGUAG,0.351
AGAGGCUGGCUACUCCUAGUUCCUGUGCUUCUUCCCAUCUCCUGUGAUCCCCCUCUCCCAUUUAUUCCCUUGAAGGUGCCCUUGUAUUCCUAAUCUGAUCUAAGAAGCUG,1.27
AGGUGAUGCUGAGGUCCCUUGUGGAAGCCUCUCUUGGGAAUCUCAACUGCAGAGGAGCUGCCCUCUGUCAGCAGCUCUCCAGCAUGGUCCUCUGACACUCCUCAGAUGAA,0.532
UUGGCAGGUGCUUUCGUUGCCAUCUCACUCUGAGGGCAUACCUGGAUGUCCAGGCAAGACUGGGCGAAGUUUCUGAGUGGCCCUUUGUUUAGGUGAUGUCCUCAGACCUG,0.323
UCUUUAUAUAUGUUGAAUUAACAAAUAUUUUGAGUUUCUGAGAAAAAACAAAACAUAUUAAUGGUAUUGAAAUGUGUUAGUAGUCUGGCUGUGUGCCCAAAAUUCUGUUU,0.456
CGGGGUCUGAAGACUGUCUUCCUAUCUGCUUCUUGCGGCUGAGGAGAGGAGCAGUUCAGUUUACAAAACAAGUGCAAAUUACCAAACUCAAAGCUUAUUUGAGUAGAAUG,1.26
CCCCCCUACACCAGCCAUAGGCCUGUUCUUUUUCUUCCUUCUGAAAACUGUGACCAGUUCAAAUUAUGACUCAGAACGUAGGGCCAGCACCAGCUACCUCUGCAGACUCC,0.452
UUUCUAGAAUUCUCCAGGGAUUUGGGCUUGGGAAACUUGGUAAGAAUAGUUUUUAUUUUUGAACAUUCAACUUUGGUUCUUCAAAGUAAUCUUUAAACAUGGGAAUAUGU,0.798
GCCUGUGGAGACCUGUGAAGAGCGGCUCCUGGACUUUAGCUGCCCUCUCCGUCCCAGAGGCCACGAUCCAUCGGGCUGUUCUGAGGACUUCAAGGCAUCUCUUCCCCAUU,0.347
AACUGCGCCUGCAGUCACUAUCCCUACUUUUGUGGUUCAUAGAAGUCUGCAUGUGCGUUGAUUCUGUAGAGCUGUUAGUGGCUUAGUUUUUAAACUCCUAUUGGGGAGUA,1.08
UUGCUUUUGGGGAGAGUGGGGAGAAGACAUUCUAAUAAUCAGUUUGUGAAAUAGCUUCUGUUGGAAACCUUUUGAGGGGAAUAAGGAAUGGUCAUCUAAAAUGAGAGAUU,0.885

# Set 4
# Target: Histone acetyltransferase KAT6A, winged helix 2, GST fusion (KAT6A, Homo sapiens, UniProt Q92794, residues 85-181)
# Technique: protein binding microarray
# Form: double-stranded DNA, one strand shown
# Matrix: in vitro
# Concentration: not given
# Setting: 8-mer, flanks averaged, mean of 2 arrays, mostly near background
# Baseline: not given
# Reading: higher = stronger binding
# Residues (chain): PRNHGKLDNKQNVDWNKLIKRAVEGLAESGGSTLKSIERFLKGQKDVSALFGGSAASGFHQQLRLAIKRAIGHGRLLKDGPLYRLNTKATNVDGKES
Sequence,E-score
AAAGTCAA,-0.0623
ATGAGAAC,-0.148
CATGCAAA,-0.0623
CCGCTACC,-0.0177
ACCAGGAC,0.0442
AGGCCTGA,0.0309
CGCCAACG,0.108
ATGTGTCA,-0.11
CCGATGTC,-0.0797
AACGATGC,-0.0173
AAAAACCA,-0.0272
GCACGCTA,-0.0992
ATCACCAT,-0.0842
GACCGCAC,0.111
TATCCACA,0.122
AACATTAT,-0.0697
AGTTAAAT,-0.0168

# Excerpt of the above (set 4):
Sequence,E-score
CATGCAAA,-0.0623
CCGCTACC,-0.0177
ACCAGGAC,0.0442
AGGCCTGA,0.0309
CGCCAACG,0.108
ATGTGTCA,-0.11
CCGATGTC,-0.0797
AACGATGC,-0.0173
AAAAACCA,-0.0272
GCACGCTA,-0.0992
